# Assay results gathered from unrelated publications.
# Lines come from different studies, so protocols differ. Numbers after ± are the reported error.
Compound,test,test system,conditions,half-life [h]
CC(=O)c1c(C)c2cnc(Nc3ccc(C4CCN(CCS(C)(=O)=O)CC4)cn3)nc2n(C2CCCC2)c1=O,,"human, plasma","oral, 50 mg twice daily, day 21, multiple dose, added: letrozole",5.29
CCN(CC)C(=O)[C@@H]1C=C2c3cccc4[nH]cc(c34)C[C@H]2N(C)C1,,"human, plasma","dose not given, after placebo pretreatment",3.6
N[C@@H](Cc1ccc(O)c(O)c1)C(=O)O,item: carbidopa,"healthy human volunteers, plasma","subcutaneous, 24 h infusion, harmonic mean, crossover",2.14
OCc1ncc2n1-c1ccc(Cl)cc1C(c1ccccc1F)=NC2,,"human, plasma","7.5 mg midazolam, day 1, arithmetic mean, metabolite of midazolam, added: midazolam 7.5 mg alone",4
O=c1ccc2ncc(=O)n3c2n1C[C@H]3CN1CCC(NCc2cc3c(cn2)OCCC3)CC1,,"healthy human volunteers, plasma","oral, dose not given, arithmetic mean, added: rifampicin",11.1
OCc1ncc2n1-c1ccc(Cl)cc1C(c1ccccc1F)=NC2,,"humans, plasma","3 mg of midazolam, added: isavuconazole",6
C[C@H](NC(=O)c1c(C(F)F)nn(C)c1Oc1cccc(C(F)(F)F)c1)c1ccc(C(=O)O)cc1,,"human, plasma","750 mg, cycle 1 day 8, mean",8.7
COc1ccc2c(c1)[C@]13CCCC[C@@H]1[C@H](C2)N(C)CC3,,human female,"30 mg, day 22",12.7 ± 2.26
Cn1nc(NS(C)(=O)=O)c2c(Cl)ccc(-n3c([C@H](Cc4cc(F)cc(F)c4)NC(=O)Cn4nc(C(F)F)c5c4C(F)(F)[C@@H]4C[C@H]54)nc4nc(OCCC(F)(F)F)ccc4c3=O)c21,,"human, plasma","oral, 200 mg single dose, tablet, geometric mean",64.2
C[C@@H]1CC[C@H]2[C@@H](C)C(=O)O[C@@H]3O[C@@]4(C)CC[C@@H]1[C@]32OO4,,"human, male, plasma","oral, dose not given, day 2",1.5 ± 0.7
OCc1ncc2n1-c1ccc(Cl)cc1C(c1ccccc1F)=NC2,,"healthy human volunteers, plasma","5 mg single dose, day 1, fed, given alone",5.48
CCC(CC)COC(=O)[C@H](C)N[P@](=O)(OC[C@H]1O[C@@](C#N)(c2ccc3c(N)ncnn23)[C@H](O)[C@@H]1O)Oc1ccccc1,,"human, plasma","intravenous, 100 mg single dose",0.81
C[C@]1(CO)Cc2ncn(-c3ccc(C#N)c(Cl)c3)c2C(=O)O1,,"human, Chinese, plasma","20 mg single dose, geometric mean",6.1
Cn1ncc(-c2nc(N[C@H]3CC[C@H](N)CC3)ncc2Cl)c1CC1CC1,,human patients,"oral, 42 mg, day 5",21

# For quick reference, copied from above:
Compound,test,test system,conditions,half-life [h]
O=c1ccc2ncc(=O)n3c2n1C[C@H]3CN1CCC(NCc2cc3c(cn2)OCCC3)CC1,,"healthy human volunteers, plasma","oral, dose not given, arithmetic mean, added: rifampicin",11.1
